Published values collected from several papers.
Compare with care: the assays were run in different laboratories. Values joined by “and” are separate records of one study, mostly repeats; a detail may differ. ± gives the spread as reported.

`Cc1c(-c2ccc([C@@H]3[C@@H](CO)N4CCCCN(S(=O)(=O)c5ccccc5C(F)(F)F)C[C@@H]34)cc2)cccc1C(F)(F)F` has an EC50 of 95 nM (IDE (Homo sapiens, UniProt P14735); enzyme activity, inhibitor, fluorescence kinetic; with: Mca-RPPGFSAFK(Dnp)-OH substrate).
With `Cc1[nH]c(C)c(-c2ccc(-c3cccc(C(F)(F)F)c3)nc2)c(=O)c1Br` the IC50 was 156 ± 63 nM (Plasmodium yoelii; 17XL; 384-well).
`Cn1cc(Nc2nccc(-c3ccc4c(c3)CN(C3COC3)CC[C@H]4NC(=O)c3cn(C(C)(C)C)nn3)n2)cn1` — result for “plasmablast count change”: 1.91% (human, whole blood; 50 mg twice daily, day 14; reference: pre-dose baseline).
The AUC(0-t) of `COc1ccc(C[C@@H](C)[C@@H](C)Cc2ccc(OC)c(OC)c2)cc1OC` is reported as 29300 ± 19200 ng·h/mL (beagle dog, male, plasma; oral, 300 mg/kg/day, day 1).
With `COc1cc2c(NC3CCN(C(C)C)CC3)nc(C3CCCCC3)nc2cc1OCCCN1CCCC1` the viability was 113% (HBL-1; 1 µM, 120 h).
`CC(=O)CC(c1ccccc1)c1c(O)c2ccccc2oc1=O` (centres unmarked) gave a Vz/F of 0.233 ± 0.0147 L/kg (Sprague-Dawley rat, male, plasma; oral, 0.3 mg/kg/day, 1 week, without PNS).
For `CCc1nn(C)c2nc(-c3ccc(C(=O)O)cc3)nc(NCc3ccc(F)cc3)c12`, the body weight was 21.3 g and 21.9 g and 20.8 g (NSG mice; dose not given, day 5 of treatment).
With `OB1NN=Cc2ccccc21` the peak area was 312000 a.u. and 305000 a.u. and 309000 a.u. (stability, UPLC-MS; diluted serum; 2 day, 37 °C; higher = more compound remaining).
`O=C(Nc1cnccc1Cl)N1CCN(Cc2ccc3c(c2)OC(F)(F)O3)CC1`: “postural dizziness incidence” 33.3% (multiple ascending dose; elderly men and women; 100 mg, treatment-emergent adverse events).
`C=C1C(=O)O[C@@H](CCC)[C@@H]1C(=O)O` (racemic) gave a viability of 99.5% (HBL-1; 1 µM, 120 h).
`C[C@@H](N)C1CCN(S(=O)(=O)c2cccc3cnccc23)CC1`: “discontinuations due to TEAEs” 0% (healthy volunteers; 25 mg and 250 mg combined, fasted).
With `OCc1nc2ccc(NCc3ccc(C(F)(F)F)cc3)cc2[nH]1` the tissue/plasma ratio was 7.5 ± 3.4 (Balb/c mouse, male, kidney; intravenous, 1 mg/kg, 6 h; reference: tissue over plasma).
The AUC(0-t) of `CN1CCC[C@H](CN2c3ccccc3Sc3ccccc32)C1.Cl` is reported as 138000 ng·h/mL (Wistar rat female, liver; oral, 16 mg/kg).
For `O=c1c2ccccc2oc2ccccc12`, the solubility was 0.0809 mole fraction (tricaprin-tricaprylin mixture; 60 °C, tricaprin fraction 0.56).
For `Cc1ccc(Sc2ccccc2N2CCNCC2)c(C)c1`, “any adverse event” read 0% (healthy adult men; oral, 10 mg single, 10 day).
For `Cc1c(-c2ccc(N3CCc4cccc(C(=O)Nc5nc6ccccc6s5)c4C3)nc2C(=O)O)cnn1CC12CC3(C)CC(C)(C1)CC(OCCNCC[C@H](O)CO)(C3)C2`, “mean arterial pressure change” read -1 mmHg (beagle dog, male, anaesthetised; intravenous infusion, 0.01 mg/kg/min, 45 min; reference: baseline).
`CC(C)(C(=O)N1CCOc2c(C#N)cncc2C1)C(F)F` — result for “subjects with adverse event”: 12.5% (refers to: Lymphadenopathy; human; oral, 15 mg twice daily, 14 days, multiple ascending dose).
With `Cc1[nH]c(C)c(-c2ccc(OCCSc3ccncc3)cc2)c(=O)c1Br` the IC50 was 964 ± 123 nM (Plasmodium yoelii; 17XL; 384-well).
The DT50 water of `C[C@@H]1OC(=O)[C@H](Cc2ccccc2)[C@H]1O` is reported as 13 days (Staffordshire loam sediment, aerobic dark; 20 °C).
`O=C(Nc1nc2cccc(-c3ccc(CN4CCS(=O)(=O)CC4)cc3)n2n1)C1CC1`: “treatment-emergent adverse events” 0% (refers to: renal and urinary disorders; rheumatoid arthritis patients; oral, 200 mg once daily, 4 weeks, any relatedness).
`CCc1cc(C(=O)NC)c2nccc(N3CCc4c(cc(Cn5ccnc5)cc4-c4cn(C)nc4C(F)(F)F)C3=O)c2c1` — result for “serum UA level”: 316 ± 60.9 µmol/L (Sprague Dawley rats; oral, 100 mg/kg twice daily, 7 days).
For `CNC(=O)c1cc(Oc2ccc(NC(=O)Nc3cc(C(C)(C)C)nn3-c3ccc4ncccc4c3)c(F)c2)ccn1`, “patients with any AE of special interest” read 28% (refers to: worst grade 3; human; oral, dose not given, cycles 1 and 2, High AUC(0-4 h) subgroup).
The SUV of `CNc1ccc(-c2nc3ccc(O)cc3s2)cc1` [carbon-11 labelled] is reported as 0.381 ± 0.118 (microPET/CT imaging; B6SJL mouse, normal, brain; intravenous, 10 min).

Repeated from above:
`CCc1cc(C(=O)NC)c2nccc(N3CCc4c(cc(Cn5ccnc5)cc4-c4cn(C)nc4C(F)(F)F)C3=O)c2c1` — result for “serum UA level”: 316 ± 60.9 µmol/L (Sprague Dawley rats; oral, 100 mg/kg twice daily, 7 days).
For `CNC(=O)c1cc(Oc2ccc(NC(=O)Nc3cc(C(C)(C)C)nn3-c3ccc4ncccc4c3)c(F)c2)ccn1`, “patients with any AE of special interest” read 28% (refers to: worst grade 3; human; oral, dose not given, cycles 1 and 2, High AUC(0-4 h) subgroup).
